Measurements gathered from unrelated publications.
Compare with care: the assays were run in different laboratories.
ETS1 Y397A: Protein C-ets-1 (ETS1, Homo sapiens, UniProt P14921, residues 1-441, Y397A, full length assumed)
Chain of UniProt P14921 (whole entry, unmodified, looked up): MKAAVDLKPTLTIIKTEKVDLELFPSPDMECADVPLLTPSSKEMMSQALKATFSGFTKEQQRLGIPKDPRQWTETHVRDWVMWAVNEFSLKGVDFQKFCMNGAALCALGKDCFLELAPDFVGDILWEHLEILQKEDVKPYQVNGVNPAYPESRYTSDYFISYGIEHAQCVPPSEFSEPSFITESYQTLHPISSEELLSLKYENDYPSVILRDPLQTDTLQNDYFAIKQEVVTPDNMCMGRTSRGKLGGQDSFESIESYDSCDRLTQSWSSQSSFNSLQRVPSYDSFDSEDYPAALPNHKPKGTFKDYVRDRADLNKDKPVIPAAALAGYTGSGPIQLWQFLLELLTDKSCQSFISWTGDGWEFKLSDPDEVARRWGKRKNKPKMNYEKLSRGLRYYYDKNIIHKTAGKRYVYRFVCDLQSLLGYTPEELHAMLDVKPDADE
IRF5 K96S/S451D/S453D/S456D/S462D full length, phosphomimetic: Interferon regulatory factor 5, full length, phosphomimetic (IRF5, Homo sapiens, UniProt Q13568-2, residues 1-514, K96S/S451D/S453D/S456D/S462D)
Chain of UniProt Q9UJQ4 (whole entry, looked up): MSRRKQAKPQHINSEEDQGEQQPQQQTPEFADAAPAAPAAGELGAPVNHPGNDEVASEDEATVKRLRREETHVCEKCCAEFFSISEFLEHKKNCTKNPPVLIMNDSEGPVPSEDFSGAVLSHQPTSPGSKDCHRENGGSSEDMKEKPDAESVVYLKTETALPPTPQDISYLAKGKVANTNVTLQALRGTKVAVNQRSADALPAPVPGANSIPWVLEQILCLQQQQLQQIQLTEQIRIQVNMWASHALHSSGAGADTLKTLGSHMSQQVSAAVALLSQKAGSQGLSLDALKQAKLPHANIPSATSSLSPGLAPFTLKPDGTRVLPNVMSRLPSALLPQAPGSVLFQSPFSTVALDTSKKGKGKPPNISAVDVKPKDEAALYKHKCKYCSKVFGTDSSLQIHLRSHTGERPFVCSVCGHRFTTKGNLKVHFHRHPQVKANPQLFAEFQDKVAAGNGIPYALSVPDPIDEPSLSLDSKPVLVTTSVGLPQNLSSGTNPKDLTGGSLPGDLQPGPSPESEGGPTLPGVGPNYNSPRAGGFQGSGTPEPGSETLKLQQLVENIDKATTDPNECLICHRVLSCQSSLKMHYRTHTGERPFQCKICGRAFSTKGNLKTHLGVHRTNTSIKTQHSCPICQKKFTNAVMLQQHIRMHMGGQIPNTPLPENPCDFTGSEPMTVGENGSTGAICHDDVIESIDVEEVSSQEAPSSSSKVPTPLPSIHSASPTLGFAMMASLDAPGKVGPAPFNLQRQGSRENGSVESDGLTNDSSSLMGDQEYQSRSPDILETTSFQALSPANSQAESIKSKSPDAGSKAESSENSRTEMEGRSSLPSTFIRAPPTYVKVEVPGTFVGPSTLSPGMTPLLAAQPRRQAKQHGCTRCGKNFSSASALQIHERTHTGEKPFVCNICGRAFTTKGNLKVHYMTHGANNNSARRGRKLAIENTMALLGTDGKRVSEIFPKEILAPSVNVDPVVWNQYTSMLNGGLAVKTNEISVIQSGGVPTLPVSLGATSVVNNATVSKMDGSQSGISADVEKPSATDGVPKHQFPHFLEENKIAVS

Molecule = PhoQ, residues 284 288 289 292 302 303 SNSSNI; target = PhoP, residues 12 14 15 18 19 NYFTV (Escherichia coli, UniProt P23836); test = Sort-seq, item: YFP reporter; system = E. coli; conditions = PhoQ-PhoP variant library, added: 10 µM Mg2+; scale = relative to: high Mg2+ state, higher = stronger signaling; measurement = fold induction; value = 1.1
Molecule = GGCGGGGA; target = ETS1 Y397A; test = protein-binding microarray; system = double-stranded DNA, one strand shown, in vitro; conditions = not given, k-mer, scored over probes, only values ≥0.25; scale = higher = stronger binding; measurement = E-score; value = 0.325
Molecule = ACATGTGA; target = Histone acetyltransferase KAT6A, winged helix 1, GST fusion (KAT6A, Homo sapiens, UniProt Q92794, residues 1-85); test = protein binding microarray; system = double-stranded DNA, one strand shown, in vitro; conditions = not given, 8-mer, flanks averaged, mean of 2 arrays, mostly near background; scale = relative to: not given, higher = stronger binding; measurement = E-score; value = -0.0865
Molecule = ACCCCACC; target = Sal-like protein 4, full length isoform A (SALL4, Homo sapiens, UniProt Q9UJQ4, residues 1-1053); test = universal PBM; system = double-stranded DNA, one strand shown, in vitro; conditions = 600 nM, 8-mer, flanks averaged, mean of replicates; scale = higher = stronger binding; measurement = E-score; value = -0.0704
Molecule = GCCTAGCACGACGATTACAGTTCCGAGACGTGCTAGGTCTTGATTCGCTTGACGCTGCTG; target = IRF5 K96S/S451D/S453D/S456D/S462D full length, phosphomimetic; test = protein-binding microarray; system = double-stranded DNA, one strand shown, in vitro; conditions = 250 nM, 60-bp whole probe, added: salmon DNA 0.4 mg/ml; scale = relative to: random background probes, higher = stronger binding; measurement = log fluorescence; value = 0.167 z-score
Molecule = ACCCCUU; target = PABPC1L2, full length, GST fusion (mouse, UniProt A0ABA7IW68); test = RNAcompete; system = RNA, in vitro; conditions = 20 nM, 7-mer, probes averaged, single round; scale = relative to: mean of 7-mers, higher = stronger binding; measurement = 7-mer Z-score; value = -0.349
Molecule = GCCTAGCACCTCTGCTTGTGTCTGGGATTGTGCTAGGTCTTGATTCGCTTGACGCTGCTG; target = IRF5 K96S/S451D/S453D/S456D/S462D full length, phosphomimetic; test = protein-binding microarray; system = double-stranded DNA, one strand shown, in vitro; conditions = 250 nM, 60-bp whole probe, added: salmon DNA 0.4 mg/ml; scale = relative to: random background probes, higher = stronger binding; measurement = log fluorescence; value = -0.364 z-score
Molecule = GGAAGTGA; target = ETS1 Y397A; test = protein-binding microarray; system = double-stranded DNA, one strand shown, in vitro; conditions = not given, k-mer, scored over probes, only values ≥0.25; scale = higher = stronger binding; measurement = E-score; value = 0.418
